{"data": "Experimental data gathered from unrelated publications", "effect on": "cell growth or viability", "note": "Each line is one published result; not all experiments were run side by side."}
{"SMILES": "O=C(CNc1ccccc1N1CCCC1=O)Nc1ccc(Oc2ccc(Cl)cc2)cc1", "cell line": "HepG2", "test": "ATP luminescence", "conditions": "48 h", "CC50": "16.8 µM"}
{"SMILES": "O=C1C=C2NCCc3c[nH]c(c32)C1=O", "cell line": "HCT-116", "test": "MTT", "conditions": "72 h", "CC50": "50 µM"}
{"SMILES": "Nc1nc2c(ncn2COCCO)c(=O)[nH]1", "cell line": "BEAS-2B", "test": "MTT", "conditions": "48 h", "CC50": "206 µM"}
{"SMILES": "CCCN(c1ccc(C)cc1)c1ccc(NC(=O)CN(C)c2ccccc2N2CCCC2=O)cc1", "cell line": "HepG2", "test": "ATP luminescence", "conditions": "48 h", "CC50": "27 µM"}
{"SMILES": "Cc1ncsc1-c1ccc(CNC(=O)[C@@H]2C[C@@H](O)CN2C(=O)[C@@H](NC(=O)COCCOCCn2cc(COc3ccc(-c4nc5cc(-c6ccccc6)ccn5c4Nc4ccc(C(=O)O)cc4)cc3)nn2)C(C)(C)C)cc1", "cell line": "HCT-116", "conditions": "72 h", "CC50": "152 µM"}
{"SMILES": "Cc1ccc(N(C)c2ccc(NC(=O)CN(C)c3ccccc3N3CCCC3=O)cc2)cc1Cl", "cell line": "HepG2", "test": "ATP luminescence", "conditions": "48 h", "CC50": "> 40 µM"}
{"SMILES": "Cc1ccnc2c1NC(=O)c1cccnc1N2C1CC1", "cell line": "MT4", "test": "MTT", "conditions": "5 days", "CC50": "> 15 µM"}
{"SMILES": "CCCCNC[C@@H](O)c1cc(Cl)cc2c1-c1ccc(Cl)cc1C2", "cell line": "HepG2", "conditions": "48 h", "CC50": "8.7 µM"}
{"SMILES": "COc1cc2c(cc1OC)[C@@H]1C(=O)c3ccc4c(c3O[C@@H]1CO2)C=CC(C)(C)O4", "cell line": "A549", "test": "resazurin", "conditions": "72 h", "CC50": "20 µM"}
{"SMILES": "CC(C)c1ccc(O)c(=O)cc1", "cell line": "HepDES19", "test": "MTS", "conditions": "72 h", "CC50": "53.4 µM"}
{"SMILES": "CCOC(=O)[C@@]12C[C@@H]1[C@@H](n1ccc3c(NC)nc(C#Cc4ccc(Cl)s4)nc31)[C@H](O)[C@@H]2O", "cell line": "HepG2", "test": "ATP luminescence", "conditions": "72 h", "CC50": "> 31.6 µM"}
{"SMILES": "Cc1ccc(N(c2ccc(NC(=O)CN(C)c3ccccc3N3CCCC3=O)cc2)C2CCCC2)cc1", "cell line": "HepG2", "test": "ATP luminescence", "conditions": "48 h", "CC50": "> 40 µM"}
{"SMILES": "OC(c1cc(C(F)(F)F)nc2c(C(F)(F)F)cccc12)C1CCCCN1 (stereo not drawn)", "cell line": "HepG2", "conditions": "48 h", "CC50": "3.3 µM"}
{"SMILES": "COc1ccc(S(=O)(=O)ON=C2C=C(C)C(=O)C(C)=C2)cc1", "cell line": "PANC-1", "CC50": "8.44 µM"}
{"SMILES": "Nc1ccn([C@H]2CC[C@@H](CO)O2)c(=O)n1", "cell line": "MT4", "test": "MTT", "conditions": "5 days", "CC50": "> 237 µM"}
{"SMILES": "Cc1ccc(C(C)c2ccc(NC(=O)CN(C)c3ccccc3N3CCCC3=O)cc2)cc1 (stereo not drawn)", "cell line": "HepG2", "test": "ATP luminescence", "conditions": "48 h", "CC50": "> 40 µM"}
{"SMILES": "COC1=CC2=[N+](C)CCc3c[nH]c(c32)C1=O", "cell line": "HCT-116", "test": "MTT", "conditions": "72 h", "CC50": "10 µM"}
{"SMILES": "Cc1ccc(N(C)c2ccc(NC(=O)CN(C)c3ccccc3N3CCCC3=O)cc2F)cc1", "cell line": "HepG2", "test": "ATP luminescence", "conditions": "48 h", "CC50": "> 40 µM"}
{"SMILES": "CCCCCCCCNC[C@H](O)c1cc(Cl)cc2c1-c1ccc(Cl)cc1C2", "cell line": "HepG2", "conditions": "48 h", "CC50": "6.8 µM"}
{"SMILES": "O=C1C(NCCc2ccc(O)cc2)=CC2=NCCc3c[nH]c1c32", "cell line": "HCT-116", "test": "MTT", "conditions": "72 h", "CC50": "8 µM"}
{"SMILES": "Cc1ccc(N(C)c2ccc(NC(=O)CN(C)c3ccccc3N3CCCC3=O)cc2)cn1", "cell line": "HepG2", "test": "ATP luminescence", "conditions": "48 h", "CC50": "> 40 µM"}
{"SMILES": "CCCCCNCC(O)c1cc(Cl)cc2c1-c1ccc(Cl)cc1C2 (racemic)", "cell line": "HepG2", "conditions": "48 h", "CC50": "4.1 µM"}
{"SMILES": "O=C(Sc1cccccc1=O)c1cccc(C(F)(F)F)c1", "cell line": "HepDES19", "test": "MTS", "conditions": "72 h", "CC50": "33.8 µM"}
{"SMILES": "O[C@H](CNCCCC(F)(F)F)c1cc(Cl)cc2c1-c1ccc(Cl)cc1C2", "cell line": "HepG2", "conditions": "48 h", "CC50": "13.5 µM"}
{"SMILES": "Cn1c(Cn2ccc(C(F)(F)F)c(Oc3cc(Cl)cc(C#N)c3)c2=O)n[nH]c1=O", "cell line": "MT4", "test": "MTT", "conditions": "5 days", "CC50": "> 47 µM"}
{"SMILES": "CCCCCCCNC[C@H](O)c1cc(Cl)cc2c1-c1ccc(Cl)cc1C2", "cell line": "HepG2", "conditions": "48 h", "CC50": "6.7 µM"}
{"SMILES": "Cc1ccc(Oc2ccc(NC(=O)CNc3ccccc3N3CCCC3=O)cc2)cc1", "cell line": "HepG2", "test": "ATP luminescence", "conditions": "48 h", "CC50": "14.3 µM"}
{"note": "Repeated from above:"}
{"SMILES": "CCCCCNCC(O)c1cc(Cl)cc2c1-c1ccc(Cl)cc1C2 (racemic)", "cell line": "HepG2", "conditions": "48 h", "CC50": "4.1 µM"}
{"SMILES": "O=C(Sc1cccccc1=O)c1cccc(C(F)(F)F)c1", "cell line": "HepDES19", "test": "MTS", "conditions": "72 h", "CC50": "33.8 µM"}
{"SMILES": "O[C@H](CNCCCC(F)(F)F)c1cc(Cl)cc2c1-c1ccc(Cl)cc1C2", "cell line": "HepG2", "conditions": "48 h", "CC50": "13.5 µM"}
{"SMILES": "Cn1c(Cn2ccc(C(F)(F)F)c(Oc3cc(Cl)cc(C#N)c3)c2=O)n[nH]c1=O", "cell line": "MT4", "test": "MTT", "conditions": "5 days", "CC50": "> 47 µM"}
